Measured values gathered from unrelated publications.
Protocols differ between the studies behind these lines.
Target: Cholinesterase (BCHE, Homo sapiens, UniProt P06276)
Chain of UniProt P06276 (whole entry, looked up): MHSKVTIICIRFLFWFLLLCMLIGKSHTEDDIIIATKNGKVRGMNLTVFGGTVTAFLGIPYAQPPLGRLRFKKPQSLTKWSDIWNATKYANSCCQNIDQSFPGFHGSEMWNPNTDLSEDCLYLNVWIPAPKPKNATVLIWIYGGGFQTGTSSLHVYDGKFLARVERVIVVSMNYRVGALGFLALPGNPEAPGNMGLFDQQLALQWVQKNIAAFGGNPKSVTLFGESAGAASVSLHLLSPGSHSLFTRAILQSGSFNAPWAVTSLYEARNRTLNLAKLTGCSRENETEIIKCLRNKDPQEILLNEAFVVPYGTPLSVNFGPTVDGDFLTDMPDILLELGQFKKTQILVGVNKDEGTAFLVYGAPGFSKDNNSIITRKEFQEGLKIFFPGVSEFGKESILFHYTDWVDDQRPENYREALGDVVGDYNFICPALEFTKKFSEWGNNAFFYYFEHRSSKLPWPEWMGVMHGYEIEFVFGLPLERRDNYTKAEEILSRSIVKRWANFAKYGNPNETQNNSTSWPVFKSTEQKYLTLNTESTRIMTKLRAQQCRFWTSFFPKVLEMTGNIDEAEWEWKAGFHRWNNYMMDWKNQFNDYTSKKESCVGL
Observed: enzyme activity
Mode: inhibitor

SMILES	assay	setting	IC50 [µM]
COc1cc2c(cc1OC)C(=O)/C(=C\c1ccc(Br)cc1)C2	Ellman		> 1000
COc1cc(/C=N\N=C(\C)c2ccc(OCc3ccc(Br)cc3)cc2)ccc1O			29.2
CC12CC(c3ccoc3)OC(=O)C1(O)CCC1(C)C2C2OC(=O)C1(O)C1OC21 (centres unmarked)	Ellman		813
O=C(O)CCCC(=O)O	Ellman		931
Oc1ccccc1C1=Nn2c(nnc2-c2ccc(-n3nc(-c4ccccc4O)nc3-c3ccccc3O)cc2)SC1	Ellman		0.47
COc1cc2c(cc1OC)C(=O)C(=Cc1ccc(N3CC[N+](C)(C)CC3)cc1)C2	Ellman		4
O=C(NCc1ccc[n+](Cc2ccccc2Cl)c1)c1ccc(CN2C(=O)c3ccccc3C2=O)cc1	Ellman		4.34
COc1cc2c(cc1OC)C(=O)/C(=C\c1ccc(N(C)C)cc1)C2	Ellman		> 1000
Cc1ccccc1C[n+]1cccc(CNC(=O)c2ccc(CN3C(=O)c4ccccc4C3=O)cc2)c1	Ellman		0.2
Oc1ccc(C2=Nn3c(nnc3-c3ccc(-n4nc(-c5ccccc5O)nc4-c4ccccc4O)cc3)SC2)cc1	Ellman		0.17
COc1cc2c(cc1OC)C(=O)C(=Cc1ccc(N3CCN(C)CC3)cc1)C2	Ellman		126
COc1c(C(=O)/C=C/c2ccccc2)ccc2occc12	Ellman		58.8
S=C(NCc1ccccn1)NCc1ccccn1	Ellman		317
COc1ccc(-c2coc3cc(OCCN4CCCCC4)ccc3c2=O)cc1	Ellman		5.75
COc1c2c(cc3oc(-c4ccccc4)cc(=O)c13)OC(C)(C)C=C2	Ellman		4.95
COc1cc(/C=C/C(=O)CC(=O)/C=C/c2ccc(OC(=O)CCc3c[nH]c4ccccc34)c(OC)c2)ccc1OC(=O)CCc1c[nH]c2ccccc12			60.7
COc1ccc2c(=O)c(OC)c(-c3ccc(OC)c(OC)c3)oc2c1	Ellman		> 200
Nn1c(-c2ccc(-n3nc(-c4ccccc4O)nc3-c3ccccc3O)cc2)n[nH]c1=S	Ellman		0.18
COc1c(C(=O)/C=C(\O)c2ccccc2)ccc2c1C=CC(C)(C)O2	Ellman		> 200
CN1CC[C@]2(C)c3cc(OC(=O)Nc4ccccc4)ccc3NC12 (single isomer, unassigned; (+))	Ellman	pH 8, with preincubation	> 10

Repeated from above:
SMILES	assay	setting	IC50 [µM]
CC12CC(c3ccoc3)OC(=O)C1(O)CCC1(C)C2C2OC(=O)C1(O)C1OC21 (centres unmarked)	Ellman		813
O=C(O)CCCC(=O)O	Ellman		931
Oc1ccccc1C1=Nn2c(nnc2-c2ccc(-n3nc(-c4ccccc4O)nc3-c3ccccc3O)cc2)SC1	Ellman		0.47
